Measurements gathered from unrelated publications.
Parts stem from different laboratories: compare values within a part only. ± marks the error that the study gave.
Sequence of UniProt O75676 (whole entry, looked up): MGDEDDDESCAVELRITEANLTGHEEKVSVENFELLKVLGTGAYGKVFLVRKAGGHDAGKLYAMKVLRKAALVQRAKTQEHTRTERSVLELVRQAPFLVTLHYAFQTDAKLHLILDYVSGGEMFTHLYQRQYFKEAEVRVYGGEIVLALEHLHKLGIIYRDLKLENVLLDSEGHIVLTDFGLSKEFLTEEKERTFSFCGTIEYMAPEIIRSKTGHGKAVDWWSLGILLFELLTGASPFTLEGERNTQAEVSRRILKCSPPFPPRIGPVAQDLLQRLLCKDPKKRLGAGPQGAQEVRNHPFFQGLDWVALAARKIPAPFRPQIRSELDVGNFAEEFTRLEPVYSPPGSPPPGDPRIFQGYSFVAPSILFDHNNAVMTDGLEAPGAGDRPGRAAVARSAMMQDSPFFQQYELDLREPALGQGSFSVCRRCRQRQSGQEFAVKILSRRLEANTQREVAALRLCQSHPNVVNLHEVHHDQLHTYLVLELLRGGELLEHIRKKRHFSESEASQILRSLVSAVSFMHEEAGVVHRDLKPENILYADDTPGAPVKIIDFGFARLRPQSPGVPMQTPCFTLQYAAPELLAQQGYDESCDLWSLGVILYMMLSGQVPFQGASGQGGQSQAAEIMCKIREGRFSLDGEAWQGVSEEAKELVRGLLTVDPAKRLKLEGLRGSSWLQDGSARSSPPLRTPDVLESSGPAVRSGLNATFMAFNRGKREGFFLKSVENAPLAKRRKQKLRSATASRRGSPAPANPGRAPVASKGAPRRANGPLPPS
Sequence of UniProt P08581 (whole entry, looked up): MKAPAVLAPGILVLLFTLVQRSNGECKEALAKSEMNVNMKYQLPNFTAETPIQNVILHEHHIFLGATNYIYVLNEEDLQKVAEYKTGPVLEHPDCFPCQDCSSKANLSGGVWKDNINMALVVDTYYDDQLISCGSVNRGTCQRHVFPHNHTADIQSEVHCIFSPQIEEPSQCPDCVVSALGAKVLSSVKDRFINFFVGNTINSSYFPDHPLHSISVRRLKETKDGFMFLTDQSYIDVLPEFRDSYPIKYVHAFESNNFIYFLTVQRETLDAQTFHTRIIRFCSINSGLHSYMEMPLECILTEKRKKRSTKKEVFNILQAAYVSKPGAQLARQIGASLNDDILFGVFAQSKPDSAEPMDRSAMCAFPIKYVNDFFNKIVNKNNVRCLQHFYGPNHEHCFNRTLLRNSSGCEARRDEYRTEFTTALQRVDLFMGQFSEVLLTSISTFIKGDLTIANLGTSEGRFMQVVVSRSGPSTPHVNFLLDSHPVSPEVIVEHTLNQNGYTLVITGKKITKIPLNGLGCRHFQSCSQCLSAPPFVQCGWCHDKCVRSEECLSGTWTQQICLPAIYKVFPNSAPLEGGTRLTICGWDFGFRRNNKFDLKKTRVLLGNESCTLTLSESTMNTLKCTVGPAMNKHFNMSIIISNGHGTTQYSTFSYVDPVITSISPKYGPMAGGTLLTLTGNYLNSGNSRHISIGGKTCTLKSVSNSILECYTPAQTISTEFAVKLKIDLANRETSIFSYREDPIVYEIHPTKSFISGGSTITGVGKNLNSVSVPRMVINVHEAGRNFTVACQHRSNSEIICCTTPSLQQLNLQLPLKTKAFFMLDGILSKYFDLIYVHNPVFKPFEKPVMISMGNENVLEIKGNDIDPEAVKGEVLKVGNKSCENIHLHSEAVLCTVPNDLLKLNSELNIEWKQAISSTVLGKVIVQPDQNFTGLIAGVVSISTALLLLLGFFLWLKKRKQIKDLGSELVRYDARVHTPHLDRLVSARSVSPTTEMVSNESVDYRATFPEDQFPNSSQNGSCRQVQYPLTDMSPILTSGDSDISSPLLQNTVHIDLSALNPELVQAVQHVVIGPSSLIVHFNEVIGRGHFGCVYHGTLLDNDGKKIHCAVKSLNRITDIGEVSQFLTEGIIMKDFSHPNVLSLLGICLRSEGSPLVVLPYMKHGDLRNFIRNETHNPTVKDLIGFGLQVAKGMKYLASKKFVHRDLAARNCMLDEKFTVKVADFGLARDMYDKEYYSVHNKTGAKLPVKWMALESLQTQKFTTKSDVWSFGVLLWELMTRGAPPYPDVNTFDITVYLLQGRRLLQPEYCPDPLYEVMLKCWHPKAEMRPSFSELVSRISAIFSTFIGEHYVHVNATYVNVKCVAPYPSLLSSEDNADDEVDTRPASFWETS
Sequence of UniProt Q86UE8 (whole entry, looked up): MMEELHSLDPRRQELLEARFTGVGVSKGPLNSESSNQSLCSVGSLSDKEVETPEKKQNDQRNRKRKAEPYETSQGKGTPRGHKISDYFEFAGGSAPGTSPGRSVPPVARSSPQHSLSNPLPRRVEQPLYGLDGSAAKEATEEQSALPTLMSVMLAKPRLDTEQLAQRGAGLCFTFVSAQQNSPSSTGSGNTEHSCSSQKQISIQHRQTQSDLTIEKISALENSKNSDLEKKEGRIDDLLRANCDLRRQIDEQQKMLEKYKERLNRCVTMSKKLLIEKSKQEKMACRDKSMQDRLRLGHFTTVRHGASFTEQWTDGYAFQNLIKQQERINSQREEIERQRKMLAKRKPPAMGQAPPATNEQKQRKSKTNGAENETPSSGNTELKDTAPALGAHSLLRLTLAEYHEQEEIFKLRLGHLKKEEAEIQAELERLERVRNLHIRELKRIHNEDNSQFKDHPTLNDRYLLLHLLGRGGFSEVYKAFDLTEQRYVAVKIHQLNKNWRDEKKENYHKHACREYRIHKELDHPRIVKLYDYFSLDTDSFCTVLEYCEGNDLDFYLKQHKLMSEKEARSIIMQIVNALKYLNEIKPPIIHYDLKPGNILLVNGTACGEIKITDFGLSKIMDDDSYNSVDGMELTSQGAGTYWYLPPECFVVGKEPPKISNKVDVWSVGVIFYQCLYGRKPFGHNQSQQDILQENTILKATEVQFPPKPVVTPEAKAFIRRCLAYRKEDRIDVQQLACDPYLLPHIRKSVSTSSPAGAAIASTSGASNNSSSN
Sequence of UniProt Q6P2M8 (whole entry, looked up): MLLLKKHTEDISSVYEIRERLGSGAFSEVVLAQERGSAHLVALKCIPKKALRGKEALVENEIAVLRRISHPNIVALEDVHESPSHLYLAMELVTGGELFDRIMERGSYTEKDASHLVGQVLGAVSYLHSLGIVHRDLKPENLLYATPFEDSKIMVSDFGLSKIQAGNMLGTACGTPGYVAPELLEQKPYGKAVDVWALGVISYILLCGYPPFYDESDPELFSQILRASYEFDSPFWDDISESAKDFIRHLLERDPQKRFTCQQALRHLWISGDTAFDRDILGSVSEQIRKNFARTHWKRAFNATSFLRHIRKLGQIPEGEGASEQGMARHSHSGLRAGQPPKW
Sequence of UniProt Q16566 (whole entry, looked up): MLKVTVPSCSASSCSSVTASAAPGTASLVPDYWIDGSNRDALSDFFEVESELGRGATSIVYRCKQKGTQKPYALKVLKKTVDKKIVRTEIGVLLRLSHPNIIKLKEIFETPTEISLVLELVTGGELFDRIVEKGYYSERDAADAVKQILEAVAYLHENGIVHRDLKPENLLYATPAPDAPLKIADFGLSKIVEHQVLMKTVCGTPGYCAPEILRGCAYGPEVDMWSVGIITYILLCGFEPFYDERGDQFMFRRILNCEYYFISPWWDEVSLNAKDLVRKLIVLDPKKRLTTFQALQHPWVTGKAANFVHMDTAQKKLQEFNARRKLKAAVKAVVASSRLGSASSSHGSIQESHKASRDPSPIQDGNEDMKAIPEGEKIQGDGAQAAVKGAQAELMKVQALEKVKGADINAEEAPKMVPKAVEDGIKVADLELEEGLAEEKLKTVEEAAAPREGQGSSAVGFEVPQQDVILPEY
Sequence of UniProt Q7KZI7 (whole entry, looked up): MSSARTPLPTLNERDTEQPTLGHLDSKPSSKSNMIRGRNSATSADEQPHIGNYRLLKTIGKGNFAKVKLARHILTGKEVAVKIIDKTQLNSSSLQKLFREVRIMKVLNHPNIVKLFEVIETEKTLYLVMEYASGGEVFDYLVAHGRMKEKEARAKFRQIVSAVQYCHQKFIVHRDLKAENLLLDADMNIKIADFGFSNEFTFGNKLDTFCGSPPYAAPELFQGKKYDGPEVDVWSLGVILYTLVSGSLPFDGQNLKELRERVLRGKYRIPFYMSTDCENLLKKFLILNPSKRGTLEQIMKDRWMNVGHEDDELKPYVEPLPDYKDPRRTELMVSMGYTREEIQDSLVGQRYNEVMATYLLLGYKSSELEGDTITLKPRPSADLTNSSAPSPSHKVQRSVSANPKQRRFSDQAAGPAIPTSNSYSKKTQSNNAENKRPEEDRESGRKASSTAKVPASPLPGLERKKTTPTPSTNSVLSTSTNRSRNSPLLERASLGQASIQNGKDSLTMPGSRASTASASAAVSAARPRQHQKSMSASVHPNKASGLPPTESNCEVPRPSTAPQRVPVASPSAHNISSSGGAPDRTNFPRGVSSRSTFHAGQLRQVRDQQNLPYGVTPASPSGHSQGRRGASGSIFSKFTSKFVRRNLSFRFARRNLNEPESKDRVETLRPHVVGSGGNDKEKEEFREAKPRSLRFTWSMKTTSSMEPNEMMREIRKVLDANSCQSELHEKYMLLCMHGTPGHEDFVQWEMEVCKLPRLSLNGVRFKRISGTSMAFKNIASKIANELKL
Sequence of UniProt P06493 (whole entry, looked up): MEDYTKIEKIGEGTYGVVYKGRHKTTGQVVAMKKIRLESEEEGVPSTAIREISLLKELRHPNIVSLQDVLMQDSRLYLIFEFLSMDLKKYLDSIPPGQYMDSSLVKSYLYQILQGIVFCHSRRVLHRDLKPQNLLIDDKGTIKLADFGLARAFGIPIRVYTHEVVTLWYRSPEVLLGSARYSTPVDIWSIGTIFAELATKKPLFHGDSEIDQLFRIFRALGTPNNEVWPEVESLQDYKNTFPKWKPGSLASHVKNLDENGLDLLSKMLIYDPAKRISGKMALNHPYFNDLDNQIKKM

Study 1
SMILES: COc1cc(C(=O)N2CCC(N3CCN(C)CC3)CC2)ccc1Nc1ncc2c(n1)N(C)c1ccccc1C(=O)N2C
Observed: kinase activity
target	setting	remaining activity
RIPK2	10 µM	101 ± 9%
YES1	1 µM	86 ± 8%
BRSK2	1 µM	89 ± 7%
DYRK3	10 µM	96 ± 1%
MNK1	10 µM	53%

Study 2
SMILES: Fc1ccc(-c2nc3n(c2-c2ccncc2)CCS3)cc1
Observed: enzyme activity
Mode: inhibitor
Tested at: 0.5 µM
Baseline: control
target	remaining activity [%]
TXK (Homo sapiens, UniProt P42681)	98.9
PNCK (Homo sapiens, UniProt Q6P2M8)	90.3
Myosin-IIIb (MYO3B, Homo sapiens, UniProt Q8WXR4)	102
RPS6KA4 (Homo sapiens, UniProt O75676)	88.8
MET (Homo sapiens, UniProt P08581)	92.7
AKT2 (Homo sapiens, UniProt P31751)	95.9
CAMK4 (Homo sapiens, UniProt Q16566)	99.8
DDR2 (Homo sapiens, UniProt Q16832)	94.9
Cyclin-dependent kinase 1, with cyclin A (CDK1, Homo sapiens, UniProt P06493)	94.7
MARK2 (Homo sapiens, UniProt Q7KZI7)	96.4
TLK2 (Homo sapiens, UniProt Q86UE8)	94.7
CLK4 (Homo sapiens, UniProt Q9HAZ1)	106
MAPK14 (Homo sapiens, UniProt Q16539)	43.1

Study 3
SMILES: CCc1ccccc1C(=O)Nc1n[nH]c2c(C)c(F)c(C3C(C#N)=C(C)N(C)C(C)=C3C#N)cc12
Observed: cell-free assay
Method: competition with immobilised ligand
Tested at: 1 µM
target	remaining binding [%]
Tyrosine-protein kinase ABL1, non-phosphorylated (ABL1, Homo sapiens, UniProt P00519)	78
STK38 (Homo sapiens, UniProt Q15208)	100
SBK3 (Homo sapiens, UniProt P0C264)	73
EPHB1 (Homo sapiens, UniProt P54762)	100
PAK2 (Homo sapiens, UniProt Q13177)	75
Ribosomal protein S6 kinase alpha-4, C-terminal kinase domain (RPS6KA4, Homo sapiens, UniProt O75676)	100
TNK2 (Homo sapiens, UniProt Q07912)	81

Study 4
Cell line: A-375
Tested at: 100 µM
Time: 36 h
SMILES	viability
CN(Cc1cnc2nc(N)nc(N)c2n1)c1ccc(C(=O)N[C@@H](CCC(=O)O)C(=O)O)cc1	47.3%
CN1C(C(=O)Nc2ccccn2)=C(O)c2sccc2S1(=O)=O	105%
CN(C)CC/C=C1/c2ccccc2COc2ccc(CC(=O)O)cc21	107%
Cc1cc(C2CCCCC2)n(O)c(=O)c1	29.7%
Nc1ccc(/N=N/c2ccccc2)c(N)n1	32.8%
C#CCN[C@@H]1CCc2ccccc21	106%
C[C@@H](c1nc(-c2ccc(C#N)cc2)cs1)[C@](O)(Cn1cncn1)c1cc(F)ccc1F	21.8%

Excerpt of the above (study 2):
target	remaining activity [%]
MAPK14 (Homo sapiens, UniProt Q16539)	43.1
PNCK (Homo sapiens, UniProt Q6P2M8)	90.3
AKT2 (Homo sapiens, UniProt P31751)	95.9
RPS6KA4 (Homo sapiens, UniProt O75676)	88.8
TXK (Homo sapiens, UniProt P42681)	98.9
